Assay results from different studies.
Parts stem from different laboratories: compare values within a part only. Several values in a cell are separate wells, animals, samples, runs or records. Positions count from the first letter of the parent shown.
Chain of UniProt Q9BYT3 (whole entry, looked up): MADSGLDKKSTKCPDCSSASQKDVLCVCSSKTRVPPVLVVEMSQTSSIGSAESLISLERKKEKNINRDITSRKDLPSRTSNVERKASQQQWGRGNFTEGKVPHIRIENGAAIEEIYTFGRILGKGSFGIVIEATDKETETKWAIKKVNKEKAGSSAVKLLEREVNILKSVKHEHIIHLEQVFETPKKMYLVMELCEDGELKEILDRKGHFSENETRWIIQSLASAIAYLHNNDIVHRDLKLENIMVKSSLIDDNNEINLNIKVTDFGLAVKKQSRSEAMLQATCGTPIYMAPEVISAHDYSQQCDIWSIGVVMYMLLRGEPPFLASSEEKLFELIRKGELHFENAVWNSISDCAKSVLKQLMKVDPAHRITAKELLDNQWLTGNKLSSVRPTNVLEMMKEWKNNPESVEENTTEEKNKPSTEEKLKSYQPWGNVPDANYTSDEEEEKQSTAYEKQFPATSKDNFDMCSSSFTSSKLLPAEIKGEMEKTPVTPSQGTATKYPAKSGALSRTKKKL

Study 1
Target: CCNB3, cyclin fold, Cln2 fusion (human)
Technique: yeast growth competition, sequencing
Matrix: yeast
Setting: strong parent motif
Reference: not given
Reading: higher = stronger binding
Measurement: normalised enrichment score
Parent: viral docking peptide; KKAKRRLFTISDS
Variant = K4A; value = 0.24
Variant = R5A; value = 0.486
Variant = T9A; value = 0.631
Variant = L7A; value = 0.36
Variant = S11A; value = 0.324
Variant = R5K F8L; value = 0.154
Variant = D12A; value = 0.131
Variant = R5K; value = 0.217

Study 2
Target: FOXO3, forkhead domain (mouse, UniProt Q9WVH4, residues 31-263)
Chain of UniProt Q9WVH4 (31-263, looked up): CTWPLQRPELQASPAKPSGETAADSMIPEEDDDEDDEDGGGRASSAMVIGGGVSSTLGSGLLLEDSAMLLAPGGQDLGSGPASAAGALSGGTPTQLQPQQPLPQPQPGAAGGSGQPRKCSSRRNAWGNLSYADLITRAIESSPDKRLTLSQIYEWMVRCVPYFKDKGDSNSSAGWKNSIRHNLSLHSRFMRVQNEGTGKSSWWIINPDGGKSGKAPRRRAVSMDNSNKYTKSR
Technique: protein-binding microarray
Molecule type: hairpin DNA
Matrix: in vitro
Concentration: not given
Setting: whole hairpin DNA, median over replicate spots
Reference: not given
Reading: higher = stronger binding
Measurement: median fluorescence
Strand = GAGGCCATGCAATCAACGCCTCCTGGCGTTGATTGCATGGCCTCACACTC; value = 4410 a.u.
Strand = GAGGCCATGTAAATAACGCCTCCTGGCGTTATTTACATGGCCTCACACTC; value = 4150 a.u.
Strand = GAGGCCATGTCGACAACGCCTCCTGGCGTTGTCGACATGGCCTCACACTC; value = 4570 a.u.
Strand = GAGGCCCGGCAAACAACGCCTCCTGGCGTTGTTTGCCGGGCCTCACACTC (5mC at 7); value = 5400 a.u.
Strand = GAGGCCATGTAACCAATGCCTCCTGGCATTGGTTACATGGCCTCACACTC; value = 3700 a.u.
Strand = GAGGCCATGTAAACGACGCCTCCTGGCGTCGTTTACATGGCCTCACACTC (5mC at 14); value = 4350 a.u.
Strand = GAGGCCATGTAAGCAACGCCTCCTGGCGTTGCTTACATGGCCTCACACTC (5mC at 32); value = 6020 a.u.
Strand = GAGGCCAGGTAACCAACGCCTCCTGGCGTTGGTTACCTGGCCTCACACTC (5mC at 37); value = 4380 a.u.

Further values, each from its own experiment
Structure (SMILES) = CC[C@H](C)c1nc2cc(Nc3ccnc4ccc(S(=O)(=O)C(C)C)cc34)ccc2s1.Cl; target or system = HT-29; test = necroptosis protection, CCK-8; conditions = 2.5 µM, with: TNF-α SMAC mimetic zVAD; measurement = viability; value = 28% and 78.7% and 71.2% and 38.9%
Structure (SMILES) = COc1cccc(-c2cc(=O)c3ccccc3o2)c1N; target or system = STK33 (Homo sapiens, UniProt Q9BYT3); test = enzyme activity, inhibitor, radiometric; conditions = 0.5 µM; measurement = remaining activity; value = 98.2%
Structure (SMILES) = Cc1ccc(O)cc1Nc1ccnc2cc(-c3ccccn3)ccc12; target or system = L929; test = necroptosis protection, CCK-8; conditions = 0.078 µM, with: TNF-α-induced; measurement = viability; value = 31.4%
Structure (SMILES) = CC(C)(C)c1nc(-c2cccc(NS(=O)(=O)c3c(F)cccc3F)c2F)c(-c2ccnc(N)n2)s1; target or system = L929; test = CCK-8; conditions = 25 µM, with: zVAD; measurement = viability; value = 69.6% and 68.8% and 67.4% and 67.3%
Structure (SMILES) = N#Cc1c(Oc2ccc(F)c(NC(=O)Cc3cccc(C(F)(F)F)c3)c2)ccc2nc(NC(=O)C3CC3)sc12; target or system = L929; test = necroptosis protection, CCK-8; conditions = 0.078 µM, with: TNF-α-induced; measurement = viability; value = 28.6%
